Published values gathered from unrelated publications.
Numbers after ± are the reported error.

| SMILES | system | setting | tissue uptake [%ID/g] |
| --- | --- | --- | --- |
| N=C(N)NCCC[C@@H]1NC(=O)[C@H](CCCCNC(=O)CNC(=O)CNC(=O)CNC(=O)CC[C@H](NC(=O)c2ccc(NN=Cc3ccccc3S(=O)(=O)O)nc2)C(=O)NCC(=O)NCC(=O)NCC(=O)NCCCC[C@@H]2NC(=O)[C@@H](Cc3ccccc3)NC(=O)[C@H](CC(=O)O)NC(=O)CNC(=O)[C@H](CCCNC(=N)N)NC2=O)NC(=O)[C@@H](Cc2ccccc2)NC(=O)[C@H](CC(=O)O)NC(=O)CNC1=O [technetium-99m labelled] | athymic nu/nu mouse, female, MDA-MB-435 xenograft, kidney | intravenous, 30 min | 20.9 ± 3.49 |
| CCCC[C@H](NC(=O)CNC(=O)CNC(=O)CNC(=O)c1ccc(NN)nc1)C(=O)N[C@H]1CC(=O)NCCCC[C@@H](C(N)=O)NC(=O)[C@H](Cc2c[nH]c3ccccc23)NC(=O)[C@H](CCCNC(=N)N)NC(=O)[C@@H](Cc2ccccc2)NC(=O)[C@H](Cc2c[nH]cn2)NC1=O [technetium-99m labelled] | C57 mouse, B16/F1 melanoma, blood | intravenous, 0.037 MBq, 2 h | 0.07 ± 0.01 |
| N=C(N)NCCC[C@@H]1NC(=O)[C@H](CCCCNC(=O)CNC(=O)CNC(=O)CNC(=O)c2ccc(NN=Cc3ccccc3S(=O)(=O)O)nc2)NC(=O)[C@@H](Cc2ccccc2)NC(=O)[C@H](CC(=O)O)NC(=O)CNC1=O [technetium-99m labelled] | athymic nu/nu mouse, female, U-87 MG glioma xenograft, tumour | intravenous, 2 µCi, 60 min | 5.62 ± 1.12 |
| CCCC[C@H](NC(=O)[C@H](Cc1cccs1)NC(=O)[C@H](Cc1c[nH]cn1)NC(=O)CCNC(=O)[C@@H](NC(=O)[C@H](C)NC(=O)[C@H](Cc1c[nH]c2ccccc12)NC(=O)[C@H](CCC(N)=O)NC(=O)[C@H](Cc1cccs1)NC(=O)CN1CCC(NC(=O)CN(CCN(CCN(CC(=O)O)CC(=O)O)CC(=O)O)CC(=O)O)CC1)C(C)C)C(N)=O [indium-111 labelled] | Swiss nu/nu mouse, male, PC-3 tumour xenograft, colon | intravenous, 10 pmol, 4 h | 1.6 ± 0.6 |
| CSCC[C@H](NC(=O)[C@H](CC(C)C)NC(=O)[C@H](Cc1c[nH]cn1)NC(=O)CNC(=O)[C@@H](NC(=O)[C@H](C)NC(=O)[C@H](Cc1c[nH]c2ccccc12)NC(=O)[C@H](CCC(N)=O)NC(=O)CCCCCNC(=O)CNC(=O)CNC(=O)CNC(=O)CSC(C)=O)C(C)C)C(N)=O [technetium-99m labelled] | nude mouse, PC-3 xenograft, muscle | 90 min, added: excess unlabelled conjugate | 0.16 ± 0.03 |
| CSCC[C@H](NC(=O)[C@H](CC(C)C)NC(=O)[C@H](Cc1c[nH]cn1)NC(=O)CNC(=O)[C@@H](NC(=O)[C@H](C)NC(=O)[C@H](Cc1c[nH]c2ccccc12)NC(=O)[C@H](CCC(N)=O)NC(=O)[C@H](CC(N)=O)NC(=O)CNC(=O)[C@H](Cc1ccc(O)cc1)NC(=O)[C@H](CCCNC(=N)N)NC(=O)[C@H](CCC(N)=O)NC(=O)[C@@H]1CCCN1C(=O)CN1CCN(CC(=O)O)CCN(CC(=O)O)CCN(CC(=O)O)CC1)C(C)C)C(N)=O [indium-111 labelled] | Swiss nu/nu mouse, male, PC-3 tumour xenograft, colon | intravenous, 10 pmol, 1 h | 2.1 ± 0.4 |
| N=C(N)NCCC[C@@H]1NC(=O)[C@H](CCCCNC(=O)CNC(=O)CNC(=O)CNC(=O)CC[C@H](NC(=O)CNC(=O)CNC(=O)CNC(=O)[C@H](CCCCNC(=O)c2ccc(NN)nc2)NC(=O)c2ccc(NN)nc2)C(=O)NCC(=O)NCC(=O)NCC(=O)NCCCC[C@@H]2NC(=O)[C@@H](Cc3ccccc3)NC(=O)[C@H](CC(=O)O)NC(=O)CNC(=O)[C@H](CCCNC(=N)N)NC2=O)NC(=O)[C@@H](Cc2ccccc2)NC(=O)[C@H](CC(=O)O)NC(=O)CNC1=O [technetium-99m labelled] | athymic nude mouse, female, U-87 MG xenograft, tumor | intravenous, 0.1 MBq, 1 h | 7.46 ± 1.68 |
| CCCC[C@H](NC(=O)CNC(=O)CNC(=O)c1ccc(NN)nc1)C(=O)N[C@H]1CC(=O)NCCCC[C@@H](C(N)=O)NC(=O)[C@H](Cc2c[nH]c3ccccc23)NC(=O)[C@H](CCCNC(=N)N)NC(=O)[C@@H](Cc2ccccc2)NC(=O)[C@H](Cc2c[nH]cn2)NC1=O [technetium-99m labelled] | C57 mouse, B16/F1 melanoma-bearing, tumor | intravenous, 0.5 h | 13.8 ± 3.49 |
| N=C(N)NCCC[C@@H]1NC(=O)[C@H](CC(=O)NC23CNCCNCC(N)(CNCCNC2)CNCCNC3)NC(=O)[C@@H](Cc2ccccc2)NC(=O)[C@H](CC(=O)O)NC(=O)CNC1=O [copper-64 labelled] | Nu/Nu mouse, male, tumour-bearing, muscle | intravenous, 10 µCi, 1 h | 0.81 ± 0.36 |
| CCCC[C@H](NC(=O)CCCCCCCNC(=O)c1ccc(NN)nc1)C(=O)N[C@H]1CC(=O)NCCCC[C@@H](C(N)=O)NC(=O)[C@H](Cc2c[nH]c3ccccc23)NC(=O)[C@H](CCCNC(=N)N)NC(=O)[C@@H](Cc2ccccc2)NC(=O)[C@H](Cc2c[nH]cn2)NC1=O [technetium-99m labelled] | C57 mouse, B16/F1 melanoma, muscle | 2 h, added: NDP-MSH 10 µg (6.07 nmol) co-injected | 0.06 ± 0.05 |
| N=C(N)NCCC[C@@H]1NC(=O)[C@H](CCCCNC(=O)CCOCCOCCOCCOCCNC(=O)CC[C@H](NC(=O)[C@H](CCCCNC(=O)c2ccc(NN)nc2)NC(=O)c2ccc(NN)nc2)C(=O)NCCOCCOCCOCCOCCC(=O)NCCCC[C@@H]2NC(=O)[C@@H](Cc3ccccc3)NC(=O)[C@H](CC(=O)O)NC(=O)CNC(=O)[C@H](CCCNC(=N)N)NC2=O)NC(=O)[C@@H](Cc2ccccc2)NC(=O)[C@H](CC(=O)O)NC(=O)CNC1=O [technetium-99m labelled] | athymic nude mouse, female, U-87 MG xenograft, intestine | intravenous, 0.1 MBq, 1 h | 11.4 ± 0.97 |
| N=C(N)NCCC[C@@H]1NC(=O)[C@H](CCCCNC(=O)CNC(=O)CNC(=O)CNC(=O)CC[C@H](NC(=O)CNC(=O)CNC(=O)CNC(=O)c2ccc(NN=Cc3ccccc3S(=O)(=O)O)nc2)C(=O)NCC(=O)NCC(=O)NCC(=O)NCCCC[C@@H]2NC(=O)[C@@H](Cc3ccccc3)NC(=O)[C@H](CC(=O)O)NC(=O)CNC(=O)[C@H](CCCNC(=N)N)NC2=O)NC(=O)[C@@H](Cc2ccccc2)NC(=O)[C@H](CC(=O)O)NC(=O)CNC1=O [technetium-99m labelled] | athymic nu/nu mouse, female, MDA-MB-435 xenograft, liver | intravenous, 120 min | 2.47 ± 0.25 |
| N=C(N)NCCC[C@@H]1NC(=O)[C@H](CCCCNC(=O)CCOCCOCCOCCOCCNC(=O)CC[C@H](NC(=O)CCOCCOCCOCCOCCNC(=O)CC[C@H](NC(=O)CN2CCN(CC(=O)O)CCN(CC(=O)O)CCN(CC(=O)O)CC2)C(=O)NCCOCCOCCOCCOCCC(=O)N[C@@H](CCC(=O)NCCOCCOCCOCCOCCC(=O)NCCCC[C@@H]2NC(=O)[C@@H](Cc3ccccc3)NC(=O)[C@H](CC(=O)O)NC(=O)CNC(=O)[C@H](CCCNC(=N)N)NC2=O)C(=O)NCCOCCOCCOCCOCCC(=O)NCCCC[C@@H]2NC(=O)[C@@H](Cc3ccccc3)NC(=O)[C@H](CC(=O)O)NC(=O)CNC(=O)[C@H](CCCNC(=N)N)NC2=O)C(=O)NCCOCCOCCOCCOCCC(=O)NCCCC[C@@H]2NC(=O)[C@@H](Cc3ccccc3)NC(=O)[C@H](CC(=O)O)NC(=O)CNC(=O)[C@H](CCCNC(=N)N)NC2=O)NC(=O)[C@@H](Cc2ccccc2)NC(=O)[C@H](CC(=O)O)NC(=O)CNC1=O [indium-111 labelled] | athymic nude mouse U-87 MG xenograft, spleen | intravenous, 1 h, added: RGD2 co-injected 14 mg/kg | 0.5 |

For quick reference, copied from above:
| SMILES | system | setting | tissue uptake [%ID/g] |
| --- | --- | --- | --- |
| N=C(N)NCCC[C@@H]1NC(=O)[C@H](CCCCNC(=O)CNC(=O)CNC(=O)CNC(=O)CC[C@H](NC(=O)CNC(=O)CNC(=O)CNC(=O)[C@H](CCCCNC(=O)c2ccc(NN)nc2)NC(=O)c2ccc(NN)nc2)C(=O)NCC(=O)NCC(=O)NCC(=O)NCCCC[C@@H]2NC(=O)[C@@H](Cc3ccccc3)NC(=O)[C@H](CC(=O)O)NC(=O)CNC(=O)[C@H](CCCNC(=N)N)NC2=O)NC(=O)[C@@H](Cc2ccccc2)NC(=O)[C@H](CC(=O)O)NC(=O)CNC1=O [technetium-99m labelled] | athymic nude mouse, female, U-87 MG xenograft, tumor | intravenous, 0.1 MBq, 1 h | 7.46 ± 1.68 |
| CCCC[C@H](NC(=O)CNC(=O)CNC(=O)c1ccc(NN)nc1)C(=O)N[C@H]1CC(=O)NCCCC[C@@H](C(N)=O)NC(=O)[C@H](Cc2c[nH]c3ccccc23)NC(=O)[C@H](CCCNC(=N)N)NC(=O)[C@@H](Cc2ccccc2)NC(=O)[C@H](Cc2c[nH]cn2)NC1=O [technetium-99m labelled] | C57 mouse, B16/F1 melanoma-bearing, tumor | intravenous, 0.5 h | 13.8 ± 3.49 |
